Published values pooled from the literature.
Lines come from different studies, so protocols differ. ± gives the spread as reported.

Compound | target | test | test system | setting | how to read | quantity | result
c1coc(-c2n[nH]cc2-c2ccnc3ccccc23)c1 | Serine/threonine-protein kinase SCH9 (SCH9, Candida albicans, UniProt Q5AHG6) | kinase binding, MIB/MS competition | Candida albicans lysate | 1 µM | relative to: DMSO, negative = stronger binding | log2 fold change | -0.26
Cc1cc2c(cc1N1C(=O)c3cccc4c(Cl)ccc(c34)C1=O)n(C)c(=O)n2C | Protein polybromo-1, bromodomain 5 (PBRM1, Homo sapiens, UniProt Q86U86) | binding, thermal shift | – | 10 µM | higher = stronger binding | thermal shift | -0.1 °C
Cc1cc(Nc2cc(N3CCN(C)CC3)nc(Sc3ccc(NC(=O)C4CC4)cc3)n2)[nH]n1 | EEF2K (Homo sapiens, UniProt O00418) | kinase activity, KinaseProfiler | – | 0.03 µM, species human | relative to: control | remaining activity | 94%
CC1CCCN(C(=O)c2cc3ncccn3n2)C1 (stereo not drawn) | FBXW7 (Homo sapiens, UniProt Q969H0) | binding, affinity selection mass spectrometry | – | – | relative to: other proteins in batch | log fold enrichment | 0.0887
CC(=O)N[C@H](C(=O)N[C@@H](CC(N)=O)C(=O)N[C@@H](CCCCN)C(=O)N1CCC[C@H]1C(=O)N[C@@H](CC(C)C)C(=O)N1CCC[C@H]1C(=O)N1CCC[C@H]1C(=O)N[C@@H](CC(C)C)C(=O)N1CCC[C@H]1C(=O)N[C@H](C(=O)N[C@@H](C)C(N)=O)C(C)C)C(C)C | High osmolarity signaling protein SHO1, SH3 domain (SHO1, Saccharomyces cerevisiae, UniProt P40073) | ligand binding, FTIR spectroscopy, item: asymmetric stretch band A | – | pH 7.0, SHO1 complex, with: 4 mM peptide | – | peak area | 23 ± 4%
CCCCCCCCOC(=O)NS(=O)(=O)Nc1ccc(-c2cc3ccccc3[nH]2)cc1OC | Polyunsaturated fatty acid lipoxygenase ALOX15 (Oryctolagus cuniculus, UniProt P12530) | – | – | 8 µM, with: linoleic acid | – | kcat | 9.45 ± 0.71 s⁻¹
S=c1[nH]nc(-c2cc(-c3ccccc3)nc3ccccc23)o1 | P2X purinoceptor 2 (P2RX2, Homo sapiens, UniProt Q9UBL9) | calcium mobilization | MCF7 stably transfected | 100 µM, with: ATP 100 µM | – | fluorescence increase | 79.9 ± 2.06%
C=C1C(=O)O[C@@H]2C[C@@]3(C)CCCC(=C)[C@@H]3C[C@H]12 | Nuclear receptor subfamily 4 group A member 1 (NR4A1, Homo sapiens, UniProt P22736) | reporter gene, NBRE reporter full-length | – | 10 µM | relative to: vehicle | activation | 0.83 fold
CCOc1ccc(N(C)S(=O)(=O)c2cc(Cl)sc2C(=O)Nc2cc(Cl)cc(C(=O)O)c2)cc1OC | PPARD (Homo sapiens, UniProt Q03181) | – | – | concentration not given | – | activity | inactive
NCCCC(=O)O | SLC6A6 (Homo sapiens, UniProt P31641, G62A) | binding, microscale thermophoresis | – | 1 mM, room temperature, with: 50 nM labelled protein | higher = more binding | normalised MST signal | -0.0293
Nc1nnc(-c2cccc(Cl)c2Cl)c(N)n1 | SCN5A (Homo sapiens, UniProt Q14524) | sodium current, patch clamp | – | 25 µM, holding -120 mV | – | fast tau on | 67.2%
CC(=O)Nc1ccc(S(=O)(=O)N2CCN(CC(O)COc3ccc4ccccc4c3)CC2)cc1 (stereo not drawn) | Sodium channel protein type 8 subunit alpha, C-terminal domain (SCN8A, Homo sapiens, UniProt Q9UQD0) | binding, protein thermal shift | – | 25 µM | – | delta Tm | 8.8 °C

Some of these lines once more:
Compound | target | test | test system | setting | how to read | quantity | result
CCOc1ccc(N(C)S(=O)(=O)c2cc(Cl)sc2C(=O)Nc2cc(Cl)cc(C(=O)O)c2)cc1OC | PPARD (Homo sapiens, UniProt Q03181) | – | – | concentration not given | – | activity | inactive
